Results of several laboratories.
Compare with care: the assays were run in different laboratories. Numbers after ± are the reported error.
Cell line: HCT-116

SMILES = Cc1cc(C)n(-c2nc(-c3ccc(Cl)cc3)c3c(NC(=O)c4ccccc4)nnc-3[nH]2)n1; test = SRB; setting = 10 µM, NCI60 single-dose screen, colon cancer; scale = reference: untreated; endpoint = cell growth; value = 84.8%
SMILES = COc1nc(NCc2cn(-c3ccc(C(=O)Nc4ccc(C(F)(F)F)cc4)cc3)nn2)nc(OC)n1; test = annexin V-FITC/PI; setting = IC50, 24 h; endpoint = apoptotic cells Early; value = 13.7%
SMILES = Cn1cnc2c(F)c(Nc3ccc(Br)cc3F)c(C(=O)NOCCO)cc21; setting = 0.625 µM, 72 h; endpoint = viability; value = 43.7%
SMILES = NC(=O)NOCCCCCCCCCCCC[P+](c1ccccc1)(c1ccccc1)c1ccccc1.O=C([O-])C(F)(F)F; test = cell growth, live-cell imaging; setting = 0.3 µM, control at 90% confluence; endpoint = cell confluence; value = 90.3 ± 2.97%
SMILES = Cc1cc(C)n(C(=S)[S][Au][PH](CCCCCC[PH]([Au][S]C(=S)n2nc(C)cc2C)(c2ccccc2)c2ccccc2)(c2ccccc2)c2ccccc2)n1; test = cell growth, NCI-60 screen; setting = colon cancer; endpoint = log10 TGI; value = > -4
SMILES = CCCN1CCN(c2ccc3[nH]c(-c4ccc5[nH]c(-c6cc(OC)c(OC)c(OC)c6)nc5c4)nc3c2)CC1; test = SRB; setting = 10 µM, 48 h; endpoint = growth percent; value = 55.1%
SMILES = CC(=O)c1sc(=NN=C(C)c2c(O)c3ccccc3oc2=O)[nH]c1C; test = cell growth, MTT; scale = reference: IC50 BJ-1 over HCT-116; endpoint = selectivity index; value = > 3.18
SMILES = O=P1(C2CCCCC2)CCCCC1; test = annexin V/PI flow cytometry; setting = IC50, 72 h; endpoint = early apoptotic cells; value = 2.2%
SMILES = NC(=O)NOCCCC[P+](c1ccccc1)(c1ccccc1)c1ccccc1.O=C([O-])C(F)(F)F; test = cell growth, live-cell imaging; setting = 100 µM, control at 90% confluence; endpoint = cell confluence; value = 92.4%
SMILES = O=C(Nc1nnc2[nH]c(=S)[nH]c(-c3ccc(Cl)cc3)c1-2)c1ccccc1; test = SRB; setting = 10 µM, NCI60 single-dose screen, colon cancer; scale = reference: untreated; endpoint = cell growth; value = 99.1%
SMILES = COc1cccc2c1C(=O)c1c(O)c3c(c(O)c1C2=O)C[C@@](O)(C(=O)CO)C[C@@H]3O[C@H]1C[C@H](N)[C@H](O)[C@H](C)O1; test = flow cytometry; setting = 3.66 µM (IC50), 72 h; endpoint = cells in G0/G1 phase; value = 33.6%
SMILES = NC(=O)NOCCCCCCCCCCCCCCCC[P+](c1ccccc1)(c1ccccc1)c1ccccc1.O=C([O-])C(F)(F)F; test = cell growth, live-cell imaging; setting = 0.03 µM, control at 90% confluence; endpoint = cell confluence; value = 87.6%
SMILES = CCCCN1CCN(c2ccc3nc(-c4ccc5nc(-c6cc(OC)ccc6OC)[nH]c5c4)[nH]c3c2)CC1; test = SRB; setting = 10 µM, 48 h; endpoint = growth percent; value = 97%
SMILES = O=[N+]([O-])c1cc(I)c(O)c(C=NNc2ccccc2)c1; test = ELISA; test system = culture supernatant; setting = IC50, together with: LPS; endpoint = IL-6 level; value = 42%
SMILES = COc1nc(NCc2cn(-c3ccc(NC(=O)c4ccc(F)cc4)cc3)nn2)nc(OC)n1; test = MTT; setting = 72 h; scale = reference: normal colonocytes over HCT-116; endpoint = selectivity index; value = 1.21
SMILES = CC(=NN=c1scc(C)n1C)c1c(O)c2ccccc2oc1=O; test = cell growth, MTT; scale = reference: IC50 BJ-1 over HCT-116; endpoint = selectivity index; value = > 3.68
SMILES = Cn1cncc1C1=CN(c2ncnc3[nH]cnc23)CCS1; setting = colon cancer; endpoint = TGI; value = 91.2 µM
SMILES = O=[N+]([O-])c1cc(Br)c(O)c(C=NNc2ccccc2)c1; test = ELISA; test system = culture supernatant; setting = IC50, together with: LPS; endpoint = TNF-α level; value = 25%
SMILES = CCCCN1CCN(c2ccc3[nH]c(-c4ccc5[nH]c(-c6cc(OC)c(OC)c(OC)c6)nc5c4)nc3c2)CC1; test = SRB; setting = 10 µM, 48 h; endpoint = growth percent; value = 41.1%
SMILES = Cc1cc(=O)[nH]c(=O)n1Cc1cn(-c2c3ccccc3nc3ccccc23)nn1; test = NCI60 single-dose screen; setting = 10 µM; endpoint = growth percentage; value = 63.1%
SMILES = COc1cc(NCC(=O)Nn2c(C)nc3ccc(Cl)cc3c2=O)cc(OC)c1OC; test = cytotoxicity, LDH release; setting = 24 h, 50% viability reduction; endpoint = IC50; value = 573 ± 8.17 µM
SMILES = COc1ccc(NC(=O)c2cccc(-c3nc(NC(P(=O)(O)O)P(=O)(O)O)c4ccsc4n3)c2)cc1F; test = Rap1A prenylation, inhibitor, Western blot; endpoint = lowest effective concentration; value = ≤ 100 nM
SMILES = COc1cccc2c1C(=O)c1c(O)c3c(c(O)c1C2=O)C[C@@](O)(C(=O)CO)C[C@@H]3O[C@H]1C[C@H](N)[C@H](O)[C@H](C)O1; test = annexin V-FITC/PI; setting = IC50, 24 h; endpoint = necrotic cells; value = 4.61%
SMILES = CCCN1CCN(c2ccc3[nH]c(-c4ccc5[nH]c(-c6ccc(OCC)c(OCC)c6)nc5c4)nc3c2)CC1; test = SRB; setting = 10 µM, 48 h; endpoint = growth percent; value = -83.4%
SMILES = NC(=O)NOCCCCCCCCCCCCCC[P+](c1ccccc1)(c1ccccc1)c1ccccc1.O=C([O-])C(F)(F)F; test = cell growth, live-cell imaging; setting = 0.75 µM, control at 90% confluence; endpoint = cell confluence; value = 51.6%
SMILES = O=C1NC(=NCc2cccs2)S/C1=C\c1ccc2ncccc2c1; test = MTS; test system = colon cancer; endpoint = IC50; value = 3.2 µM
SMILES = NC(=O)NO; test = cell growth, live-cell imaging; setting = 3000 µM, control at 90% confluence; endpoint = cell confluence; value = 3.43 ± 0.9%
SMILES = O=C(NOC[C@H](O)CO)c1ccc(F)c(F)c1Nc1ccc(I)cc1F; setting = 0.625 µM, 72 h; endpoint = viability; value = 32%
SMILES = NC(=O)NOCCCCCCCCCC[P+](c1ccccc1)(c1ccccc1)c1ccccc1.O=C([O-])C(F)(F)F; test = cell growth, live-cell imaging; setting = 0.1 µM, control at 90% confluence; endpoint = cell confluence; value = 82.1%
SMILES = COc1nc(NCc2cn(-c3ccc(C(=O)Nc4ccccc4)cc3)nn2)nc(OC)n1; test = annexin V-FITC/PI; setting = IC50, 24 h; endpoint = necrotic cells; value = 3.83%
SMILES = O=[N+]([O-])c1ccc(O)c(C=NNc2ccc(Br)cc2)c1; test = cell cycle analysis; setting = IC50, 24 h; endpoint = cells in G2/M phase; value = 27.6%
SMILES = O=C(Nc1nnc2n3c(Cc4ccccc4)n[nH]c3nc(-c3ccc(Cl)cc3)c1-2)c1ccccc1; test = SRB; setting = 10 µM, NCI60 single-dose screen, colon cancer; scale = reference: untreated; endpoint = cell growth; value = 94.8%
SMILES = CC(=NN=c1sc(N=Nc2ccccc2)c(C)n1C)c1c(O)c2ccccc2oc1=O; test = cell growth, MTT; scale = reference: IC50 BJ-1 over HCT-116; endpoint = selectivity index; value = > 2.64
SMILES = O=[N+]([O-])c1cc(Br)c(O)c(C=NNc2ccc(C(F)(F)F)cc2)c1; test = Muse cell cycle; setting = IC50, 24 h; endpoint = cells in S phase; value = 27.3%
SMILES = CCOC(=O)CSc1nc(-c2ccc(Cl)cc2)c2c(NC(=O)c3ccccc3)nnc-2[nH]1; test = SRB; setting = 10 µM, NCI60 single-dose screen, colon cancer; scale = reference: untreated; endpoint = cell growth; value = 99.3%
SMILES = O=c1ccn(Cc2cn(-c3cc4ccccc4oc3=O)nn2)c(=O)[nH]1; test = NCI60 single-dose screen; setting = 10 µM; endpoint = growth percentage; value = 100%
SMILES = COc1cnc2cccc(N3CCc4c(cc(Cn5ccnc5C)cc4-c4cn(C)nc4C(F)(F)F)C3=O)c2c1; test = cell growth, inhibitor; setting = 120 h; endpoint = EC50; value = 11.9 µM
SMILES = CC(=NN=C1SC(C)C(=O)N1C)c1c(O)c2ccccc2oc1=O (stereo not drawn); test = cell growth, MTT; scale = reference: IC50 BJ-1 over HCT-116; endpoint = selectivity index; value = > 2.23
SMILES = O=C(O)c1ccc(Nc2c(-c3ccccc3)nc3cnccn23)cc1C(=O)O; test = cell viability; setting = 72 h, together with: camptothecin; scale = direction not given; endpoint = synergy score; value = 4

A few entries again:
SMILES = O=C1NC(=NCc2cccs2)S/C1=C\c1ccc2ncccc2c1; test = MTS; test system = colon cancer; endpoint = IC50; value = 3.2 µM
SMILES = CCCN1CCN(c2ccc3[nH]c(-c4ccc5[nH]c(-c6ccc(OCC)c(OCC)c6)nc5c4)nc3c2)CC1; test = SRB; setting = 10 µM, 48 h; endpoint = growth percent; value = -83.4%
SMILES = O=C(Nc1nnc2[nH]c(=S)[nH]c(-c3ccc(Cl)cc3)c1-2)c1ccccc1; test = SRB; setting = 10 µM, NCI60 single-dose screen, colon cancer; scale = reference: untreated; endpoint = cell growth; value = 99.1%
SMILES = Cn1cncc1C1=CN(c2ncnc3[nH]cnc23)CCS1; setting = colon cancer; endpoint = TGI; value = 91.2 µM
SMILES = COc1nc(NCc2cn(-c3ccc(C(=O)Nc4ccccc4)cc3)nn2)nc(OC)n1; test = annexin V-FITC/PI; setting = IC50, 24 h; endpoint = necrotic cells; value = 3.83%
